Assay results gathered from unrelated publications.
Each numbered part is a random draw from the data of one study; scales do not carry over between parts.

Block 1 — technique: protein-binding microarray; form: double-stranded DNA, one strand shown; sample: in vitro; tested at: 250 nM; setting: 60-bp whole probe; together with: salmon DNA 0.4 mg/ml; baseline: random background probes; reading: higher = stronger binding
Target: Interferon regulatory factor 7, full length, phosphomimetic (IRF7, Homo sapiens, UniProt Q92985, residues 1-503, S101K/S471D/S472D/S475D/S476D/S477D/S483D/S484D/S487D)
UniProt Q92985, sequence (whole entry, unmodified, looked up): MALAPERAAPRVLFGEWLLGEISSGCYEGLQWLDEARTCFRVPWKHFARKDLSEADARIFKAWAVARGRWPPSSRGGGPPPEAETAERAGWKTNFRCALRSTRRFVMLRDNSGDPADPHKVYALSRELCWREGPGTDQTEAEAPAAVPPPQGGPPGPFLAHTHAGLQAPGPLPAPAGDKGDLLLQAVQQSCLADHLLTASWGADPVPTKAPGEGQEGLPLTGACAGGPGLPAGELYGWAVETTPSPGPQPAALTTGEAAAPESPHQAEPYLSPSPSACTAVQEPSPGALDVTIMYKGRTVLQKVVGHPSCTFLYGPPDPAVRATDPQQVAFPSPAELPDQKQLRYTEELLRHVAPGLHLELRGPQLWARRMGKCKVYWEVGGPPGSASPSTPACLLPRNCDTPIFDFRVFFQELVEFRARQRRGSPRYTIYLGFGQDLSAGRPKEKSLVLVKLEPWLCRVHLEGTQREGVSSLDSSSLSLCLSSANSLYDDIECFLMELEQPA
| Strand | log fluorescence [z-score] |
| --- | --- |
| GCCTAGCACTTTGGTCTCCTACTGCTTTAGTGCTAGGTCTTGATTCGCTTGACGCTGCTG | 0.252 |
| GCCTAGCACGACGATTTAAGTCTCGAGACGTGCTAGGTCTTGATTCGCTTGACGCTGCTG | 0.758 |
| GCCTAGCACGACGGACTGTTTATCCTGACGTGCTAGGTCTTGATTCGCTTGACGCTGCTG | -0.0178 |
| GCCTAGCACTCACTCCTCCTTCTCTAACTGTGCTAGGTCTTGATTCGCTTGACGCTGCTG | 0.428 |

Block 2 — technique: universal PBM; form: double-stranded DNA, one strand shown; sample: in vitro; tested at: 600 nM; reading: higher = stronger binding
Target: Sal-like protein 4, full length isoform A (SALL4, Homo sapiens, UniProt Q9UJQ4, residues 1-1053)
UniProt Q9UJQ4, sequence (whole entry, looked up): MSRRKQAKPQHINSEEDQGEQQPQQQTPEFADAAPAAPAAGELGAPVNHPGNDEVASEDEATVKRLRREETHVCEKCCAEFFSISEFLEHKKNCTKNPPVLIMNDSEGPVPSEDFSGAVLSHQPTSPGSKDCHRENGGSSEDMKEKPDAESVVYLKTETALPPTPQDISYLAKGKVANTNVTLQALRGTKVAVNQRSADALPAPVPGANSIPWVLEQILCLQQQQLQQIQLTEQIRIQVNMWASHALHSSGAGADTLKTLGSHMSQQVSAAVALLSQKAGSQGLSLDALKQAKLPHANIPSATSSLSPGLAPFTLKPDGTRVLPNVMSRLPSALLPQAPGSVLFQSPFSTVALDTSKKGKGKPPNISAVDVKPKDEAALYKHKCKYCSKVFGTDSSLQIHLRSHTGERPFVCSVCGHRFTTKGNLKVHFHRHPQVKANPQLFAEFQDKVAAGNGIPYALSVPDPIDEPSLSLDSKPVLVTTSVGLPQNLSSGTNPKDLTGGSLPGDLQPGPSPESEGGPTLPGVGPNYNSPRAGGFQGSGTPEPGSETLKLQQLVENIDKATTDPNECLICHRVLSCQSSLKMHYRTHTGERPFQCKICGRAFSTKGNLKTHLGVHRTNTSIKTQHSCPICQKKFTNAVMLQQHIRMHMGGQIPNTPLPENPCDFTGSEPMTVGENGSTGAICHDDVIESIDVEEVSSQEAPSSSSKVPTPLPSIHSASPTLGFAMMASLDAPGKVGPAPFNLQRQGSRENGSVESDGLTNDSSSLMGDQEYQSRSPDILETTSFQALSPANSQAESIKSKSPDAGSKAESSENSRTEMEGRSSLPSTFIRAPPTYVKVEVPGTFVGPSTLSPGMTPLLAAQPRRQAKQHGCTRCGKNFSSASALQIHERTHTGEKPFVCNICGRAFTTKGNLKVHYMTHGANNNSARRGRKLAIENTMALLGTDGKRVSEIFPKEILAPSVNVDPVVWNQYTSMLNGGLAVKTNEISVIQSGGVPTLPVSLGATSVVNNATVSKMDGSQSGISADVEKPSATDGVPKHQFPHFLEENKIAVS
Setting: 8-mer, flanks averaged, mean of replicates
| Strand | E-score |
| --- | --- |
| CCGGACGC | -0.318 |
| CAAGGTAG | -0.079 |
| AACACTAT | 0.321 |
| CCGTGATC | -0.138 |

Block 3 — technique: protein binding microarray; form: double-stranded DNA, one strand shown; sample: in vitro; tested at: not given; baseline: not given; reading: higher = stronger binding
Target: Histone acetyltransferase KAT6A, winged helix 1, GST fusion (KAT6A, Homo sapiens, UniProt Q92794, residues 1-85)
Setting: 8-mer, flanks averaged, mean of 2 arrays, mostly near background
Residues (chain): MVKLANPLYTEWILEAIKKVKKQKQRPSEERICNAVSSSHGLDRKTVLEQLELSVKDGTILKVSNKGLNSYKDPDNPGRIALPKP
| Strand | E-score |
| --- | --- |
| TTATGAAA | -0.137 |
| GCATTGAA | -0.0565 |
| CTAACGAC | -0.105 |
| ATTGCGAC | 0.163 |

Other studies, line by line
| Substance | target | test | test system | conditions | scale | endpoint | result |
| --- | --- | --- | --- | --- | --- | --- | --- |
| PhoQ, residues 284 288 289 292 302 303 SASVAL | PhoP, residues 12 14 15 18 19 SGWQI (Escherichia coli, UniProt P23836) | Sort-seq, measured: YFP reporter | E. coli | PhoQ-PhoP variant library, together with: 10 µM Mg2+ | baseline: high Mg2+ state, higher = stronger signaling | fold induction | 0.915 |
